Measurements collected from several papers.
Target: Cyclin-dependent kinase 11B (CDK11B, Homo sapiens, UniProt P21127)

CNC1C[S+]2CC[S+]3CC[S+](C1)[Ru-4]321([N]=C=S)[n]2c3ccc(OC)cc3c3c4c(c5cc(F)c[n+]1c5c32)C(=O)NC4=O (stereo not drawn)  remaining binding (KinomeScan; 0.1 µM; reference: untreated): 95%
COc1c(Cl)cccc1Nc1c(-c2ccncc2C#C[C@@]2(C)CCCN2C(=O)/C=C/CN(C)C)[nH]c2c1C(=O)NCC2  remaining binding (binding, competition with immobilised ligand; 3 µM): 100%
CC(C)=CC1OC(C)(C)C2C=C3C(=O)C(Cl)=CC(O)C3C3C(O)C4OC4C(=O)C132 (stereo not drawn)  remaining binding (cell-free assay, competition with immobilised ligand; 10 µM): 77%
COc1cc(Nc2nccc(-c3cnn4nc(OC)ccc34)n2)cc(C(F)(F)F)c1  remaining binding (binding, competition with immobilised ligand; 1 µM): 90%
Cc1ccc(-c2c(/C=C(\C#N)C(=O)NC(C)C)n(CCCO)c3ncnc(N)c23)cc1  remaining binding (cell-free assay, competition with immobilised ligand; 1 µM): 100%
CCN1CCN(Cc2ccc(C(=O)Nc3ccc(C)c(NCc4cnc5[nH]ccc5c4OC)c3)cc2C(F)(F)F)CC1  remaining binding (binding, competition with immobilised ligand; 1 µM): 98%
C=CC(=O)N1CCCC(n2c(=O)c3ncccc3n(Cc3ccc(Oc4ccccc4)cc3)c2=O)C1 (stereo not drawn)  remaining binding (cell-free assay, competition with immobilised ligand; 1 µM): 100%
C=CC(=O)N1CCc2ccc(-n3c(=O)ccc4cnc5ccc(-c6cnn(C)c6)cc5c43)cc21  remaining binding (KINOMEscan; 1 µM; reference: DMSO control): 100%
COc1cc(Nc2nc(C)cc(-c3cnn4nc(OC)ccc34)n2)cc(C(F)(F)F)c1  remaining activity (inhibitor; 1 µM, CDC2L1; reference: control): 100%
Cc1cnc2nc1Nc1cccc(c1)COC/C=C/COCc1cc(ccc1OCCN1CCOCC1)N2  remaining binding (binding, competition with immobilised ligand; 0.1 µM): 98%
Nc1ncc2c(n1)-c1c([nH]c3ccc(C4=CCOCC4)cc13)CCC2  remaining binding (binding, competition with immobilised ligand; 1 µM): 100%
CNC(=O)C1CCN(c2cc(C)c(F)cc2NC(=O)c2ccc(-c3cc(O)ccc3C)c(C)c2)CC1  remaining binding (binding, competition with immobilised ligand; 1 µM): 93%

Excerpt of the above:
CNC1C[S+]2CC[S+]3CC[S+](C1)[Ru-4]321([N]=C=S)[n]2c3ccc(OC)cc3c3c4c(c5cc(F)c[n+]1c5c32)C(=O)NC4=O (stereo not drawn)  remaining binding (KinomeScan; 0.1 µM; reference: untreated): 95%
CNC(=O)C1CCN(c2cc(C)c(F)cc2NC(=O)c2ccc(-c3cc(O)ccc3C)c(C)c2)CC1  remaining binding (binding, competition with immobilised ligand; 1 µM): 93%
